{"data": "Published values of several laboratories", "CSNK2A1": "Casein kinase II subunit alpha (CSNK2A1, Homo sapiens, UniProt P68400)", "note": "Lines come from different studies, so protocols differ.", "chain of UniProt P68400 (whole entry, looked up)": "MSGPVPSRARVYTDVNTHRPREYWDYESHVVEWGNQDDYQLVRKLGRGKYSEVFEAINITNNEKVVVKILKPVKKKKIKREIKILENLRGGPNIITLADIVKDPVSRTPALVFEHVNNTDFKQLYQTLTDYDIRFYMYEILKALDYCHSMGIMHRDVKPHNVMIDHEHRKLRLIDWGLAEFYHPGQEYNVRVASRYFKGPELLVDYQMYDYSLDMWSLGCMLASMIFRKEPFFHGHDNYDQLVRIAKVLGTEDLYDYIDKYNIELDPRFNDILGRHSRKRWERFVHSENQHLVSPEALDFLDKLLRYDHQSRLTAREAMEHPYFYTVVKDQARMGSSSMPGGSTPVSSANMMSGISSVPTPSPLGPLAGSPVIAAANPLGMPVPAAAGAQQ"}
{"SMILES": "CN1CC(Oc2cnc(C#N)cc2-c2ccn3nc(NC(=O)C4CC4)cc3c2)C1", "target": "CSNK2A1", "test": "kinase activity", "conditions": "1 µM, ATP15", "measurement": "inhibition", "value": "6%"}
{"SMILES": "COc1cc(F)ccc1-c1ncnc(Nc2cccc(C[S@](C)(=N)=O)c2)n1", "target": "CSNK2A1", "test": "kinase activity", "conditions": "10 µM, added: 10 µM ATP", "measurement": "remaining activity", "value": "102%"}
{"SMILES": "C#Cc1cc(-c2cc(Nc3nc(N[C@@H](C)c4ccc(F)cn4)ncc3Cl)n[nH]2)ccc1C=O", "target": "CSNK2A1", "test": "enzyme activity, inhibitor", "conditions": "0.2 µM", "measurement": "inhibition", "value": "57.3%"}
{"SMILES": "O=C(NC1CCC1)c1ccc2nc(-c3cccc(NS(=O)(=O)NCCN4CCCCC4)c3)cn2c1", "target": "CSNK2A1", "test": "enzyme activity", "conditions": "10 µM", "measurement": "remaining activity", "value": "64%"}
{"SMILES": "O=C1NC(=O)/C(=C/c2ccc(-c3ccc(F)cc3O)o2)S1", "target": "CSNK2A1", "test": "enzyme activity", "conditions": "10 µM", "measurement": "remaining activity", "value": "25%"}
{"SMILES": "C=CC(=O)N1CCC(COCC(=O)N2CCN(c3nc(-c4cnc(N)nc4C(F)F)nc(N4CCOC[C@@H]4C)n3)CC2)CC1", "target": "CSNK2A1", "test": "KINOMEscan", "conditions": "1 µM", "measurement": "remaining binding", "value": "92%"}
{"SMILES": "CC/C(=N\\NC(=O)NCc1cccc(O)c1)c1ccc(O)c(C)c1O", "target": "Casein kinase II subunit alpha, with CK2 beta (CSNK2A1, Homo sapiens, UniProt P68400)", "test": "kinase activity", "conditions": "0.1 µM", "measurement": "inhibition", "value": "-4.2%"}
{"SMILES": "CNc1ncc2c(/C=C/C(=O)N3CCC(OC)CC3)nn(Cc3cccc(C(F)(F)F)c3)c2n1", "target": "CSNK2A1", "test": "kinase activity, inhibitor", "conditions": "1 µM", "scale": "reference: untreated control", "measurement": "remaining activity", "value": "109%"}
{"SMILES": "COc1cc(Cl)c(C(=O)N[C@@H](CN[C@H]2CC[C@@H](N)CC2)Cc2ccc(C#N)cc2)cc1-c1ccc(CN[C@H](C)c2ccc(C)cc2)o1", "target": "CSNK2A1", "test": "enzyme activity, KinaseProfiler panel", "conditions": "1 µM", "measurement": "remaining activity", "value": "102%"}
{"SMILES": "Cc1cc(Nc2cc(N3CCN(C)CC3)nc(Sc3ccc(NC(=O)C4CC4)cc3)n2)[nH]n1", "target": "CSNK2A1", "test": "kinase activity, KinaseProfiler", "conditions": "0.03 µM, species human", "scale": "reference: control", "measurement": "remaining activity", "value": "99%"}
{"note": "Repeated from above:"}
{"SMILES": "CN1CC(Oc2cnc(C#N)cc2-c2ccn3nc(NC(=O)C4CC4)cc3c2)C1", "target": "CSNK2A1", "test": "kinase activity", "conditions": "1 µM, ATP15", "measurement": "inhibition", "value": "6%"}
